Measurements of several laboratories.
Each numbered part is a random draw from the data of one study; scales do not carry over between parts. Values joined by “and” are separate records of one study, mostly repeats; a detail may differ. Substitutions count along the parent as printed.
Sequence of UniProt Q6P2M8 (whole entry, looked up): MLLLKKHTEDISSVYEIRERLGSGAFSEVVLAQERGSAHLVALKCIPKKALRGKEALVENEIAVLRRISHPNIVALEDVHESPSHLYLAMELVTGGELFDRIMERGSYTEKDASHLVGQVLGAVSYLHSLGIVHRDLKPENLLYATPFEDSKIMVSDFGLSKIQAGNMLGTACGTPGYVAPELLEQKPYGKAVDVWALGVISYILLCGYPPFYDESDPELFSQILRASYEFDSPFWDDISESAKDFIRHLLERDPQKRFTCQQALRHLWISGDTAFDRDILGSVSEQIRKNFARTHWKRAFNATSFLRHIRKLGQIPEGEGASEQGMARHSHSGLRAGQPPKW
Sequence of UniProt Q8N568 (whole entry, looked up): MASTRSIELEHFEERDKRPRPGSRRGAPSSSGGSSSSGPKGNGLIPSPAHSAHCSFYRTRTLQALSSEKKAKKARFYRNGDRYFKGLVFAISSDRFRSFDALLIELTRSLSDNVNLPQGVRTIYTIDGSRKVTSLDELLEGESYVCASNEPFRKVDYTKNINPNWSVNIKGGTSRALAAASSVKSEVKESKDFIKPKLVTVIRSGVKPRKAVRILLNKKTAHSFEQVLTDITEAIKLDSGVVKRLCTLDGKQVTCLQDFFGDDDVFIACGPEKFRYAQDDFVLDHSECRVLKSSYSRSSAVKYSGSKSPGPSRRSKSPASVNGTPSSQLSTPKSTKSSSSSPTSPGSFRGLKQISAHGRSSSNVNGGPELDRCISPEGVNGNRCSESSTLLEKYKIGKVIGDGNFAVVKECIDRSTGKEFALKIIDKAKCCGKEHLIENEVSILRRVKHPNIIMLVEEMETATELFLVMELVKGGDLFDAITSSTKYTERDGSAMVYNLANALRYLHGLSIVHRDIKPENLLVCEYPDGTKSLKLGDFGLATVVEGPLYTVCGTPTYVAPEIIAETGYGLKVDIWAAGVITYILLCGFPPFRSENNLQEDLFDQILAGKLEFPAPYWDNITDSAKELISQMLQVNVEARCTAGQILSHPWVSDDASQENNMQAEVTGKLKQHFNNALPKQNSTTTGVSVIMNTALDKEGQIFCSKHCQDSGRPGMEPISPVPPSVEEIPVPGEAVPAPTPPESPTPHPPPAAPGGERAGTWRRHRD
Sequence of UniProt O75676 (whole entry, looked up): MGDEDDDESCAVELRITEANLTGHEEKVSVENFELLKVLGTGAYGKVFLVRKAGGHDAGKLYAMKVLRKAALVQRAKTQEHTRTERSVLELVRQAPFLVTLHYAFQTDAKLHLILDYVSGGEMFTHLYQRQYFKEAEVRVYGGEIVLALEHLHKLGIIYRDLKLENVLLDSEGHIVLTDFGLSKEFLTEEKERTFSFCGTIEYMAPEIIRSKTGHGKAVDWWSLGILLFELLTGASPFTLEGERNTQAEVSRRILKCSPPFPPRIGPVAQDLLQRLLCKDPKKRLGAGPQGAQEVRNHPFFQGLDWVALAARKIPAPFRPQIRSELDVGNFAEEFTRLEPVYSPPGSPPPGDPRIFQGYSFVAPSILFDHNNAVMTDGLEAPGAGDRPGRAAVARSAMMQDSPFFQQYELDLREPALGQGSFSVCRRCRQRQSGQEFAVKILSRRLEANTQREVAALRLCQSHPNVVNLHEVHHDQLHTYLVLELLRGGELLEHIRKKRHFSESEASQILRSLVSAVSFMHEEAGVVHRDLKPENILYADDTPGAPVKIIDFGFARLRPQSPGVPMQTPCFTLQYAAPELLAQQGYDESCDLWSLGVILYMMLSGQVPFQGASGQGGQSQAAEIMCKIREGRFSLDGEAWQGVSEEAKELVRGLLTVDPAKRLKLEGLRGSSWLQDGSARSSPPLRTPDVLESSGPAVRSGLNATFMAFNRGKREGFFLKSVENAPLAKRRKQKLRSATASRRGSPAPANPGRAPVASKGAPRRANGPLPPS
Sequence of UniProt P41143 (whole entry, looked up): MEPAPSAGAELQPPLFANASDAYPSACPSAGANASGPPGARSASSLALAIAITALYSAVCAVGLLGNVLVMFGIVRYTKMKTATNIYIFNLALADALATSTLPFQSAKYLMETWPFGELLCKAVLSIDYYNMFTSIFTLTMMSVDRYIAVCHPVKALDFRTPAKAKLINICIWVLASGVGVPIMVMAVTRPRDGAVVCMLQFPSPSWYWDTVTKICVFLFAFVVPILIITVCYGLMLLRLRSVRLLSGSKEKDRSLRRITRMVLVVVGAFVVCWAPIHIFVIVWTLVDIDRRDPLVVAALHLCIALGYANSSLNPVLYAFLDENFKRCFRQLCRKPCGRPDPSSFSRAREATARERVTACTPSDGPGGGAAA
Sequence of UniProt P42681 (whole entry, looked up): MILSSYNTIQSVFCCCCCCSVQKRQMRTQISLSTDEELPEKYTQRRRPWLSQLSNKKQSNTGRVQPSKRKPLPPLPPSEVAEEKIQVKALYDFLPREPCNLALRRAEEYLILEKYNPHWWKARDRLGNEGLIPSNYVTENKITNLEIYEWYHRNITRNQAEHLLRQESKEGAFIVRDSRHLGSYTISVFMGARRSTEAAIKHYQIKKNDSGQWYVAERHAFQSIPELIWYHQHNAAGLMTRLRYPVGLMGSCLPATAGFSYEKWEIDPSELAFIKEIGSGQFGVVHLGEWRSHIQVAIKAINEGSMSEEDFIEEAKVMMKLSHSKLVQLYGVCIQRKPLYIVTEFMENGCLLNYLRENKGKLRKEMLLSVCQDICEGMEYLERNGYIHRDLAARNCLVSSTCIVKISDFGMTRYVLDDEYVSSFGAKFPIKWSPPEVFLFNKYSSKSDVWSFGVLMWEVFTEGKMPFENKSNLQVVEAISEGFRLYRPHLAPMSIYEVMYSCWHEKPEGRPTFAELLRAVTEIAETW
Sequence of UniProt P50750 (whole entry, looked up): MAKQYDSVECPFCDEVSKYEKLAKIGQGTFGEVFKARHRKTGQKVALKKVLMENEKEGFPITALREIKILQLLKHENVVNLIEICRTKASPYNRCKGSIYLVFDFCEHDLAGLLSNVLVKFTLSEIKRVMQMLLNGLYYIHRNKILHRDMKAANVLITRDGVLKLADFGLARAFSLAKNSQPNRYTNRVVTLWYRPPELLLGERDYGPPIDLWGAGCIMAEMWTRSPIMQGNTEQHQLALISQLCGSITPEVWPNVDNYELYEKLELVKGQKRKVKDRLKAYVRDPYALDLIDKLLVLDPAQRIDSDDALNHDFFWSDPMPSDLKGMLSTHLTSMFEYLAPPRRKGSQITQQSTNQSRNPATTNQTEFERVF
Sequence of UniProt P06493 (whole entry, looked up): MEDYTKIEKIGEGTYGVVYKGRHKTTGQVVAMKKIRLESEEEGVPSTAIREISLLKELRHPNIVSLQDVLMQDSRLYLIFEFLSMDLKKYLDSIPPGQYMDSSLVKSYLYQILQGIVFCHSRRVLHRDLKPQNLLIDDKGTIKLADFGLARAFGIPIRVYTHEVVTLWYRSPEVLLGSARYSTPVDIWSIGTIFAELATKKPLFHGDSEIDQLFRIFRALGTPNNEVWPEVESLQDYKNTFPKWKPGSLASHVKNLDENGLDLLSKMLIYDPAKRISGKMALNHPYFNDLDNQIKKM
Sequence of UniProt P31751 (whole entry, looked up): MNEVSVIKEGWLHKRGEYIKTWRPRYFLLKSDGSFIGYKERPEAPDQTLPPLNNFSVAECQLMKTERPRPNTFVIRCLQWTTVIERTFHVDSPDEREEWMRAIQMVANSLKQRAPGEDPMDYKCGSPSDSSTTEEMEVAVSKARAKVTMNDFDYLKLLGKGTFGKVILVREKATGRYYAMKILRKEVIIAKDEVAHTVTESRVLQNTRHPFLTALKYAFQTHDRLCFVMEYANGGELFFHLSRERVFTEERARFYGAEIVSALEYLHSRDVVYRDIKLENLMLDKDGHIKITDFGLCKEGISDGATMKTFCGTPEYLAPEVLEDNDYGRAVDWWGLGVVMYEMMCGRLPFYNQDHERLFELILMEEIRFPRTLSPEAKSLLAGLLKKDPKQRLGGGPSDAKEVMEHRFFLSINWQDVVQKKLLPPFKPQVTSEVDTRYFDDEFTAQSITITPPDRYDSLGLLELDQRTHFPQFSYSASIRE
Sequence of UniProt Q16566 (whole entry, looked up): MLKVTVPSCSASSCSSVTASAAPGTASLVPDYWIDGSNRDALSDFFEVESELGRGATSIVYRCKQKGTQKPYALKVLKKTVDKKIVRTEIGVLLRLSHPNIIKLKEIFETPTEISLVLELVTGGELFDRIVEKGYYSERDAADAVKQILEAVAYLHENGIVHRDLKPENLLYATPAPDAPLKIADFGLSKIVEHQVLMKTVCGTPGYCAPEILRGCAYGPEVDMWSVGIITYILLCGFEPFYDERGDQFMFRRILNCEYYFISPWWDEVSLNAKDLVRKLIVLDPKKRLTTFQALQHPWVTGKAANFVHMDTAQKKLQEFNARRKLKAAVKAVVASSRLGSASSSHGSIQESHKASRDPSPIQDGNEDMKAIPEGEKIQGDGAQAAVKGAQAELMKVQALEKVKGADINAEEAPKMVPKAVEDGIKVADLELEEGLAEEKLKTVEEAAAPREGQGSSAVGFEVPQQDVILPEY
Sequence of UniProt O75914 (whole entry, looked up): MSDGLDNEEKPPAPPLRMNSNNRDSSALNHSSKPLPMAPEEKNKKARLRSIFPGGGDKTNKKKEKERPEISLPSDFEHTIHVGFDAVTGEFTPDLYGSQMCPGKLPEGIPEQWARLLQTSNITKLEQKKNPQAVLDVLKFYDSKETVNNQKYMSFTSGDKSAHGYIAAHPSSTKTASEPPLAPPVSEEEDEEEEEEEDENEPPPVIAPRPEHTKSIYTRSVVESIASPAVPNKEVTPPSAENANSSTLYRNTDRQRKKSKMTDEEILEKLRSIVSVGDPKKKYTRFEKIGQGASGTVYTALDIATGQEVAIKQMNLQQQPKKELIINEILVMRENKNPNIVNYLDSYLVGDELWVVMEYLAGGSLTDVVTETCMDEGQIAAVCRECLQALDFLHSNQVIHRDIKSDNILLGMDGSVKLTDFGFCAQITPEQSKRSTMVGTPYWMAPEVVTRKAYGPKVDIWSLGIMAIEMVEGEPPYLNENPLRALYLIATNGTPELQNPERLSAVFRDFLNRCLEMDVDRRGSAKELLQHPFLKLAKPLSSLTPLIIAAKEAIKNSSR

Series 1
SMILES: N/C(=N\[N+](=O)[O-])N/N=C\c1ccc(-c2cccc([N+](=O)[O-])c2)o1
Observed: enzyme activity
Action: inhibitor
Concentration: 0.5 µM
Relative to: control
target | remaining activity [%]
Serine/threonine-protein kinase PAK 3 (PAK3, Homo sapiens, UniProt O75914) | 95.1
RAC-beta serine/threonine-protein kinase (AKT2, Homo sapiens, UniProt P31751) | 99.7
Cyclin-dependent kinase 1, with cyclin A (CDK1, Homo sapiens, UniProt P06493) | 100
MAP/microtubule affinity-regulating kinase 4 (MARK4, Homo sapiens, UniProt Q96L34) | 87.6
Serine/threonine-protein kinase DCLK2 (DCLK2, Homo sapiens, UniProt Q8N568) | 101
Mitogen-activated protein kinase 11 (MAPK11, Homo sapiens, UniProt Q15759) | 96.6
Rho-associated protein kinase 1 (ROCK1, Homo sapiens, UniProt Q13464) | 91.7
Tyrosine-protein kinase TXK (TXK, Homo sapiens, UniProt P42681) | 98.3
Calcium/calmodulin-dependent protein kinase type IV (CAMK4, Homo sapiens, UniProt Q16566) | 95.2
Calcium/calmodulin-dependent protein kinase type 1B (PNCK, Homo sapiens, UniProt Q6P2M8) | 100
Discoidin domain-containing receptor 2 (DDR2, Homo sapiens, UniProt Q16832) | 101
Cyclin-dependent kinase 9, with cyclin K (CDK9, Homo sapiens, UniProt P50750) | 95.7
Ribosomal protein S6 kinase alpha-4 (RPS6KA4, Homo sapiens, UniProt O75676) | 98.9

Series 2
Target: vanadate, free oxyanion
Method: microfluidic competitive inhibition
Medium: in vitro, cell-free expressed
Concentration: not given
Notes: derived from inhibition constants, unchanged parent 676 nM
Direction: lower = stronger binding
Starting sequence: PafA, mature enzyme, eGFP fusion (Elizabethkingia meningoseptica, UniProt Q9KJX5); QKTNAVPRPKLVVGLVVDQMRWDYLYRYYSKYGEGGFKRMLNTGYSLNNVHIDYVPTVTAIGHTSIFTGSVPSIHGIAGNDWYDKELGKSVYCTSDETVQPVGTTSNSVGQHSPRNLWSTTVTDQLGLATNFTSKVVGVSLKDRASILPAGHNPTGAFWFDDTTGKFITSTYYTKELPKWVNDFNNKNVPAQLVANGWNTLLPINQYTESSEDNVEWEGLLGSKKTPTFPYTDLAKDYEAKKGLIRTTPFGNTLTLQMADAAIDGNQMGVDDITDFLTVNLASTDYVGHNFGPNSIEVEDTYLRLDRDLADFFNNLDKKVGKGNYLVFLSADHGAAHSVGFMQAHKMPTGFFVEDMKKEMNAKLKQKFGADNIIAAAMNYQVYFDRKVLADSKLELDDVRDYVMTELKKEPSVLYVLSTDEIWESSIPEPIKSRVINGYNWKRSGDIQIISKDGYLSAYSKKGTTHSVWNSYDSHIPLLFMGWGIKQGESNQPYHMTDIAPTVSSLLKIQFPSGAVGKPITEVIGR
Variant | oxyanion analog dissociation constant
D53V | 685 nM
E209G | 564 nM
K486G | 684 nM
L326G | 580 nM
S451V | 731 nM
K166V | 1.07 µM
D385G | 706 nM
A376G | 694 nM

Series 3
Cell line: mouse MPNST tumor cells
Method: high-content nuclear imaging
Refers to: cell number
Concentration: 10 µM
Time: 12 h
Notes: mean of 2 replicates
Relative to: plate mean
Direction: higher = more cells
Structure (SMILES) | nuclei count
CC1(N2CCC(n3c([C@@H]4CCCNC4)nc4ccccc43)CC2)CCCCCCC1 | -6.55 z-score
Clc1cccc(SC2CCNCC2)n1 | 2.5 z-score
CCNC1=Nc2ccc(Cl)cc2C(C)(c2ccccc2)O1 (stereo not shown) | -0.313 z-score
CC[C@@H](C(N)=O)N1CCCC1=O | 0.169 z-score and 0.181 z-score and 1.3 z-score
CN(C(=O)Cc1ccc(Cl)c(Cl)c1)[C@H](CN1CCCC1)c1ccccc1 | -5.83 z-score

Further values, each from its own experiment
SMILES | tested on | assay | test system | setting | endpoint | result
O=C1CCc2cc(Nc3cc(OC4CCOCC4)c([N+](=O)[O-])cc3Cl)ccc2N1 | Cyclin-dependent kinase 2 homolog (CRK2, Plasmodium falciparum, UniProt P61075) | cell-free assay, competition with immobilised ligand | – | 1 µM | remaining binding | 100%
CC(=O)N[C@@H](Cc1c[nH]c2ccccc12)C(=O)N[C@@H](CCC(=O)C=[N+]=[N-])C(=O)OC(C)C | – | – | C57BL/6 CES1-/- mouse, blood | intravenous, 1 mg/kg equivalent | lymphocyte count | 2.61
Cc1c(N2CCNCC2)nc2ccc(Br)cc2c1C(=O)NC[C@H](CCC(=O)O)c1ccccc1Cl | 5-hydroxytryptamine receptor 1E (HTR1E, Homo sapiens, UniProt P28566) | ligand displacement | – | 10 µM | inhibition | 18.3%
CCC(=O)N[C@H]1CC[C@@H](C(=O)N(C)c2ccc(-c3nc4ccccc4o3)cc2)C1 | Delta-type opioid receptor (OPRD1, Homo sapiens, UniProt P41143) | binding, radioligand binding | – | 10 µM | inhibition | -17.5%
CN1CCN(c2cnc3c(C4CCN(C(=O)c5ccc(OC(F)(F)F)cc5N)CC4)ncnc3c2)CC1 | Sodium-dependent serotonin transporter (SLC6A4, Homo sapiens, UniProt P31645) | ligand displacement | – | 10 µM | inhibition | 32.4%

A few entries again (series 3):
Structure (SMILES) | nuclei count
CC1(N2CCC(n3c([C@@H]4CCCNC4)nc4ccccc43)CC2)CCCCCCC1 | -6.55 z-score
Clc1cccc(SC2CCNCC2)n1 | 2.5 z-score
CCNC1=Nc2ccc(Cl)cc2C(C)(c2ccccc2)O1 (stereo not shown) | -0.313 z-score
CC[C@@H](C(N)=O)N1CCCC1=O | 0.169 z-score and 0.181 z-score and 1.3 z-score
